Measured values of several laboratories.
Numbered parts are unrelated; each lists some results of a single study. Changes are numbered by the printed parent chain.

Block 1 — technique: protein binding microarray; molecule type: double-stranded DNA, one strand shown; medium: in vitro; tested at: not given; baseline: not given; reading: higher = stronger binding
Target: Histone acetyltransferase KAT6A, winged helix 1, GST fusion (KAT6A, Homo sapiens, UniProt Q92794, residues 1-85)
Notes: 8-mer, flanks averaged, mean of 2 arrays, mostly near background
Construct (chain): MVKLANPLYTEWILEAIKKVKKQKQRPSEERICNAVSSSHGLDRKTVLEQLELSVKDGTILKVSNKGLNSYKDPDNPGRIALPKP
With `TAGTTGGA` the E-score was -0.144.
For `CAGGTCGG`, the E-score was 0.111.
With `AAACGGCA` the E-score was 0.192.
`ATCCGCCA` has an E-score of -0.0282.

Block 2 — technique: universal PBM; molecule type: double-stranded DNA, one strand shown; medium: in vitro; tested at: not given; reading: higher = stronger binding
Target: Sal-like protein 4, full length isoform B (SALL4, Homo sapiens, UniProt Q9UJQ4-2, residues 1-616)
Notes: 8-mer, flanks averaged, mean of replicates
Target sequence (chain): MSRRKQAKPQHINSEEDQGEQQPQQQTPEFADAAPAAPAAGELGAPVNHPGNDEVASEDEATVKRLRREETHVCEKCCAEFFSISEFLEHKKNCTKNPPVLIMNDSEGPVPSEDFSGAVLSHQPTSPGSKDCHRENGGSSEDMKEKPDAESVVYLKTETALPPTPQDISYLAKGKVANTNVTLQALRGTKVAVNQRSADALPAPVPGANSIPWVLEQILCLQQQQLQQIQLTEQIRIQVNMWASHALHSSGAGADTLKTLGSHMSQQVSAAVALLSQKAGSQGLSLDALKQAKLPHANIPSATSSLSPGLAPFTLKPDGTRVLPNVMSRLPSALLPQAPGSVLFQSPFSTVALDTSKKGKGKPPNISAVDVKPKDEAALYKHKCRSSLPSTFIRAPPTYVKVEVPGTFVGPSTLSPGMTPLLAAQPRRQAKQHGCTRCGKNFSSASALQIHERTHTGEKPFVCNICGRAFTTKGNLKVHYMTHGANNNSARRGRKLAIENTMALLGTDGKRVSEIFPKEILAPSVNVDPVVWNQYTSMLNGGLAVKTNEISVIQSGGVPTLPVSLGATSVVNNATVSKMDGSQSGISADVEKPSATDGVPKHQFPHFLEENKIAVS
`AAATCAGA` has an E-score of 0.0832.
`CTAAGAGA` gave an E-score of -0.0387.
`ATTTAACA` gave an E-score of 0.25.
For `AAATGGGA`, the E-score was 0.0054.
With `CGCTCGCA` the E-score was -0.233.
With `CTATTCAC` the E-score was 0.0644.

Single results of other studies
ABI1: ABI1, truncated, D143A, DHFR fusion (Arabidopsis thaliana)
P1: PYL1, truncated, DHFR fusion (Arabidopsis thaliana); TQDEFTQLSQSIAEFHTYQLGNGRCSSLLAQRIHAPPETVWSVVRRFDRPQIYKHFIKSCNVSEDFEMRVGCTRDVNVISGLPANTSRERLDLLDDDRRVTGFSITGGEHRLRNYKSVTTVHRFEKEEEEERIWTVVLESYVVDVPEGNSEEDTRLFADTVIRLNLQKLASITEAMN; partner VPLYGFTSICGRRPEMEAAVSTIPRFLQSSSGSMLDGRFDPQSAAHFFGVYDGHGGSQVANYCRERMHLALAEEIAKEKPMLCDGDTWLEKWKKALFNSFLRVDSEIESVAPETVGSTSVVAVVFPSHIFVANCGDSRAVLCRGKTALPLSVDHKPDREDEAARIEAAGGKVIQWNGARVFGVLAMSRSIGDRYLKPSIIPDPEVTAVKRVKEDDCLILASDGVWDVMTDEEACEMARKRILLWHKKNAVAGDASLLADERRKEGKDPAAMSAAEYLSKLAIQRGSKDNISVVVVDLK
`P1 H34D`: “relative binding score” 39.9% (ABI1; DHFR PCA, deep sequencing; yeast; methotrexate growth selection, single substitutions, together with: (+)-ABA 0.0091 µM; baseline: wild-type fitted maximum, higher = stronger binding).
The fold induction of `PhoQ, residues 284 288 289 292 302 303 TAVSDG` is reported as 3.74 (PhoP, residues 12 14 15 18 19 NNFVT (Escherichia coli, UniProt P23836); Sort-seq, measured: YFP reporter; E. coli; PhoQ-PhoP variant library, together with: 10 µM Mg2+; baseline: high Mg2+ state, higher = stronger signaling).
Under “relative binding score”, `P1 T173Y` is recorded as -0.698% (ABI1; DHFR PCA, deep sequencing; yeast; methotrexate growth selection, single substitutions, together with: (+)-ABA 0.0091 µM; baseline: wild-type fitted maximum, higher = stronger binding).

Some of these lines once more (single results of other studies):
Under “relative binding score”, `P1 T173Y` is recorded as -0.698% (ABI1; DHFR PCA, deep sequencing; yeast; methotrexate growth selection, single substitutions, together with: (+)-ABA 0.0091 µM; baseline: wild-type fitted maximum, higher = stronger binding).
